Measurements gathered from unrelated publications.
Compare with care: the assays were run in different laboratories. ± gives the spread as reported.

SMILES | test system | conditions | how to read | tumour growth inhibition [%]
C[C@]12CC[C@H](n3ccnc3)CC1=CC[C@@H]1[C@@H]2CC[C@]2(C)C(n3cnc4ccccc43)=CC[C@@H]12.Cl | mouse CWR22Rv1 xenograft | oral, 20 mg/kg once daily, 16 days, 5 days per week | – | 140
Nc1nnc(-c2ccccc2O)cc1N1CCN(Cc2ccc(OCCOCCNc3cccc4c3C(=O)N(C3CCC(=O)NC3=O)C4=O)c(F)c2)CC1 (stereo not drawn) | nude mouse, NCI-H322 xenograft | intraperitoneal, 12.5 mg/kg daily, 25 days | – | 49
Cc1ncsc1-c1ccc(CNC(=O)[C@@H]2C[C@@H](O)CN2C(=O)[C@@H](NC(=O)CCCCCCCCCC(=O)N2CCN(CC[C@H](NC(=O)C3(N)CCN(c4ncnc5[nH]ccc45)CC3)c3ccc(Cl)cc3)CC2)C(C)(C)C)cc1 | nude mouse, MDA-MB-468 xenograft | 75 mg/kg | reference: vehicle | > 80
C[C@@H]1COCCN1c1cc([C@]2(O)C[C@H]3CC[C@@H](C2)O3)c2cnn(-c3cc[nH]n3)c2n1 | SUM149PT xenograft, mouse | 30 mg/kg QD x3, day 42 | – | 80.4 ± 2.5
C=CC(=O)N1CCC[C@@H](n2nc(-c3ccc(Oc4ccccc4)cc3)c3c(N)ncnc32)C1 | Rec-1 mantle cell lymphoma xenograft, mouse | 30 mg/kg twice daily | reference: vehicle | 85
CCCCc1nc2cc(/C=C/C(=O)NO)ccc2n1CCN(CC)CC | mouse, HEL 92.1.7 subcutaneous xenograft | 75 mg/kg every other day, day 0 to 17 | – | 14
O=C1CC[C@H](N2Cc3cc(N4CCN(CC5CCN(c6ccc([C@@H]7c8ccc(O)cc8CC[C@@H]7c7ccccc7)cc6)CC5)CC4)ccc3C2=O)C(=O)N1 | mouse MCF7 orthotopic xenograft | oral, 3 mg/kg once daily, 28 days | – | 85
CC(=O)c1c(C)c2cnc(Nc3ccc(N4CCNCC4)cn3)nc2n(C2CCCC2)c1=O | OVCAR-3, mouse xenograft | oral, above 50 mg/kg, not statistically significant | – | 22
CC1(C)CCC(CN2CCN(c3ccc(C(=O)NS(=O)(=O)c4ccc(NCC5CCOCC5)c([N+](=O)[O-])c4)c(Oc4cnc5[nH]ccc5c4)c3)CC2)=C(c2ccc(Cl)cc2)C1 | mouse RS4;11 xenograft | oral, 5 mg/kg once daily, day 14 | – | 67
COc1cccc2c1C(=O)c1c(O)c3c(c(O)c1C2=O)C[C@@](O)(C(=O)CO)C[C@@H]3O[C@H]1C[C@H](N)[C@H](O)[C@H](C)O1 | mouse, A549 subcutaneous xenograft | intravenous, 5 mg/kg, weekly for four weeks, with: PhAc-ALGP-prodrug 154 mg/kg | – | 68
C=CC(=O)Nc1cc(Nc2nccc(Nc3cc(Cl)c(F)cc3C(C)(C)O)n2)c(OC)cc1N1CC[C@@H](N(C)C)C1 | mouse, NCI-H2073 xenograft | oral, 25 mg/kg twice daily, day 14 | – | 141
CC(=O)O[C@@]12CO[C@@H]1C[C@H](O)[C@@]1(C)C(=O)[C@H](O)C3=C(C)[C@@H](OC(=O)[C@H](O)[C@@H](NC(=O)OC(C)(C)C)c4ccccc4)C[C@@](O)([C@@H](OC(=O)c4ccccc4)[C@H]21)C3(C)C | mouse, CWR22Rv1 CRPC xenograft | ip, 5 mg/kg, 16 days, 3 times per week | – | 56.9
Cc1n[nH]c2ccc3nc(-c4ccc(C(=O)NCCN(C)C)cc4F)c4c(c3c12)CCCC4 | MV4-11 xenograft, mouse | oral, 30 mg/kg once daily, 29 days | reference: vehicle | 80.5
COc1ccc(F)cc1C(=O)NCc1ccc(-c2nn([C@@H](C)C(F)(F)F)c(N)c2C(N)=O)cc1 | OCI-Ly10, mouse xenograft | oral, 50 mg/kg twice daily, day 28, 672 h | – | 95
COCc1cc(C(=O)Nc2cc([C@H]3CC[C@@H](OC(=O)NC(C)C)C3)[nH]n2)n(C)n1 | MCF7 xenograft, NSG mouse | oral twice daily, low dose | – | 52
COc1cc(-c2cc(C(C)=O)n3ccccc23)c(OC)cc1Cn1ccnc1 | mouse MV4-11 xenograft | oral, 40 mg/kg, 120 h, dosed five days then stopped | – | 60.6
Cl.O=C(c1cc(Cc2n[nH]c(=O)c3ccccc23)ccc1F)N1CC(CNC2CC2)C1 | BALB/c nude mouse, MX1 xenograft | oral, 25 mg/kg once daily, 23 days | – | 62.9
C=CC(=O)Nc1cc(Nc2nccc(Nc3cc(Cl)c(F)cc3C(C)(C)O)n2)c(OC)cc1N1CC[C@@H](N(C)C)C1 | NCI-H2073 parental, EGFR wild type, BALB/c nude mouse, NCI-H2073 xenograft | 12.5 mg/kg twice daily, 21 days | – | 65.1

For quick reference, copied from above:
SMILES | test system | conditions | how to read | tumour growth inhibition [%]
C=CC(=O)Nc1cc(Nc2nccc(Nc3cc(Cl)c(F)cc3C(C)(C)O)n2)c(OC)cc1N1CC[C@@H](N(C)C)C1 | mouse, NCI-H2073 xenograft | oral, 25 mg/kg twice daily, day 14 | – | 141
CC(=O)O[C@@]12CO[C@@H]1C[C@H](O)[C@@]1(C)C(=O)[C@H](O)C3=C(C)[C@@H](OC(=O)[C@H](O)[C@@H](NC(=O)OC(C)(C)C)c4ccccc4)C[C@@](O)([C@@H](OC(=O)c4ccccc4)[C@H]21)C3(C)C | mouse, CWR22Rv1 CRPC xenograft | ip, 5 mg/kg, 16 days, 3 times per week | – | 56.9
Cc1n[nH]c2ccc3nc(-c4ccc(C(=O)NCCN(C)C)cc4F)c4c(c3c12)CCCC4 | MV4-11 xenograft, mouse | oral, 30 mg/kg once daily, 29 days | reference: vehicle | 80.5
